# Experimental data gathered from unrelated publications.
# Numbered parts are unrelated; each lists some results of a single study. Several values in a cell are separate wells, animals, samples, runs or records.

# Series 1
# Cell line: normal organoid sample G
# Method: CellTiter-Glo
# Species: human
# Sample: normal-adjacent epithelium
# Concentration: 1 µM
# Relative to: DMSO
SMILES,viability [%]
CNC(=O)c1ccccc1Nc1cc(Nc2ccc(N3CCOCC3)cc2OC)ncc1C(F)(F)F,31.3
Cc1cnc(-c2cc(Cl)ccc2F)cc1-n1c(=O)n(CC(N)=O)c2cnccc21,96.1
CNc1nc(-c2ccc3c(N)n[nH]c3c2)cc(N2C[C@@H](C(=O)NC3CCCCC3)CC[C@H]2C)n1,80.8
Cn1c(-c2csc(C3CCN(Cc4nc5ncccc5[nH]4)CC3)n2)nc2ccccc21,104
Cc1nc(C2CCN(C(=O)c3ccc(OC(F)(F)F)cc3N)CC2)c2ncc(N3CCN(C)CC3)cc2n1,112
CN(C)[C@@H]1CCN(c2cc(-c3ccccc3)nc3ccnn23)C1,118
Cc1c(N2CCNCC2)nc2ccc(Br)cc2c1C(=O)NC[C@H](CCC(=O)O)c1ccccc1Cl,122
C[C@H](c1cccc(C#N)c1)n1cc(Cl)cc(C(N)=O)c1=N,101
CN(C)CC#Cc1ccc(OCCCc2sc(N3CCc4cccc(C(=O)Nc5nc6ccccc6s5)c4C3)nc2C(=O)O)c(F)c1,55.8
Cc1c(N2CCCC2)nc2ccc(Br)cc2c1C(=O)NC[C@H](CCC(=O)O)c1ccccc1Cl,98.9
c1ccc2oc(-c3csc(C4CCN(Cc5nc6ncccc6[nH]5)CC4)n3)cc2c1,64.1
CO[C@H]1CC[C@H](CNc2ccc(S(=O)(=O)NC(=O)c3ccc(N4CCN(CC5=C(c6ccc(Cl)cc6)CC(C)(C)CC5)CC4)cc3Oc3cnc4[nH]ccc4c3)cc2[N+](=O)[O-])CC1,104
CO[C@@H](C)c1c(Nc2ccc([C@@H](N(C)C(=O)C3CCS(=O)(=O)CC3)C(F)(F)F)cc2)cnc2cc(Cl)nn12,83.6
CC(=O)Nc1c(F)cc(C(=O)N[C@H]2CC[C@H](O)CC2)cc1O[C@@H](C)c1ccccc1,120
CNC(=O)c1cc(C(=O)N[C@H]2[C@@H]3COC[C@@H]32)cc2c1O[C@H](CF)[C@H]2c1ccccc1,110
N#CC1(c2ccccn2)CCN(Cc2cc(C(=O)O)c(=O)n3ccccc23)CC1,108

# Series 2
# Cell line: mouse MPNST tumor cells
# Method: high-content immunofluorescence imaging
# Refers to: nuclear SOX9
# Concentration: 10 µM
# Time: 12 h
# Setting: mean of 2 replicates
# Relative to: DMSO control
# Reading: higher = more nuclear SOX9
SMILES,nuclear SOX9 intensity
CNc1nc(NCc2ccc(NS(C)(=O)=O)cc2Cl)cc(-c2ccccn2)n1,124 % of DMSO
CCc1oc2ccccc2c1C(=O)c1cc(Br)c(O)c(Br)c1,94.9 % of DMSO
CC(=O)Nc1ccc(C(=O)Nc2ccccc2N)cc1,88.7 % of DMSO
Clc1ccc(-c2nc3sccn3c2C=NOCc2ccc(Cl)c(Cl)c2)cc1,110 % of DMSO
O=C(N[C@H](CO)[C@H](O)c1ccc([N+](=O)[O-])cc1)C(Cl)Cl,97.5 % of DMSO
O=C(O)c1cc(O)c2ccc(Cl)cc2n1,97.1 % of DMSO
C[C@H](NC(=O)CCc1nc2ccccc2c(=O)[nH]1)c1ccccc1,110 % of DMSO
CC[C@@]1(O)C(=O)OCc2c1cc1n(c2=O)Cc2cc3c(CN(C)C)c(O)ccc3nc2-1,193 % of DMSO
C[C@]12C=CC(=O)N[C@@H]1CC[C@@H]1[C@@H]2CC[C@]2(C)[C@@H](C(=O)Nc3cc(C(F)(F)F)ccc3C(F)(F)F)CC[C@@H]12,94.1 % of DMSO

# Series 3
# SMILES: COc1cc(C(=O)OCCCN2CCCN(CCCOC(=O)c3cc(OC)c(OC)c(OC)c3)CC2)cc(OC)c1OC
# Read-out: mechanical pain
# Method: von Frey test
# Species: mouse, STZ diabetic neuropathy
# Route: intravenous
# Dose: 30 mg/kg
setting,paw withdrawal threshold
"1 h post-dose, third injection",0.4 g and 0.1 g and 0.05 g and 0.27 g
"1 h post-dose, first injection, day 8",0.29 g and 0.4 g and 0.23 g and 0.51 g and 0.02 g
"3 h post-dose, third injection",0.08 g and 0.05 g and 0.32 g and 0.4 g and 0.29 g

# Series 4
# Target: Tyrosine-protein kinase Fes/Fps (FES, Homo sapiens, UniProt P07332)
# Chain of UniProt P07332 (whole entry, looked up): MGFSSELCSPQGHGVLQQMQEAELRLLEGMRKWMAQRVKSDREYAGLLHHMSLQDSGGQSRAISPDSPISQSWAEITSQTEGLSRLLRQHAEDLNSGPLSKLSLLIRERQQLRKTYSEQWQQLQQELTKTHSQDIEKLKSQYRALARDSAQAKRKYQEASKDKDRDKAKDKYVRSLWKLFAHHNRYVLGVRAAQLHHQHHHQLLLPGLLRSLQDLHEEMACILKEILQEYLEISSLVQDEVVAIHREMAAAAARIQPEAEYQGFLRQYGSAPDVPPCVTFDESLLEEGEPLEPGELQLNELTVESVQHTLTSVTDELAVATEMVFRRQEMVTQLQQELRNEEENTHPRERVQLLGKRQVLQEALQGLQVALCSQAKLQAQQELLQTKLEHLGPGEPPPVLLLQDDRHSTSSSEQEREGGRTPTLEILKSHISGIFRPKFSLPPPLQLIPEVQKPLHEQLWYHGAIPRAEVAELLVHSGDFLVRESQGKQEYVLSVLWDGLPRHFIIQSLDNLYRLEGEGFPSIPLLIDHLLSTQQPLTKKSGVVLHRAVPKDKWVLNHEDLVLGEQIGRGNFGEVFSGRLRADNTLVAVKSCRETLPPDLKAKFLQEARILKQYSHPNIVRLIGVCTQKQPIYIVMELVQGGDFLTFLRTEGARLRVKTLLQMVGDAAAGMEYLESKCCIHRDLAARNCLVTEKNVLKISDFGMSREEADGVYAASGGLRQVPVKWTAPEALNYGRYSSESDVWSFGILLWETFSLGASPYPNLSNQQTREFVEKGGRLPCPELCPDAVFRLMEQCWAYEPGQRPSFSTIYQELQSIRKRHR
# Read-out: enzyme activity
# Action: inhibitor
# Concentration: 0.5 µM
# Relative to: control
Compound,remaining activity [%]
N#C/C(=C(/N)SC1C=CC=CC1)c1cccc(C(O)c2ccncc2)c1 (stereo not drawn),95.2
CCN(CC)CCCCN1c2ccccc2Oc2ccc(Cl)cc21,99.8
O=Nc1c(-c2c(O)[nH]c3ccccc23)[nH]c2ccccc12,92.4
NC(=O)c1cccc(-c2cc(Nc3ccc(OC(F)(F)F)cc3)ncn2)c1,96.3
C[C@@H](N)[C@H]1CC[C@H](C(=O)Nc2ccncc2)CC1,109
CC(C)(C)c1nc2c3cc[nH]c(=O)c3c3cc(F)ccc3c2[nH]1,78
CNc1cc2c(Nc3cccc(Br)c3)ncnc2cn1,96.9
c1cc(-c2cnn3cc(-c4ccc(OCCN5CCCCC5)cc4)cnc23)ccn1,76.8

# For quick reference, copied from above (series 1):
SMILES,viability [%]
Cc1nc(C2CCN(C(=O)c3ccc(OC(F)(F)F)cc3N)CC2)c2ncc(N3CCN(C)CC3)cc2n1,112
CN(C)[C@@H]1CCN(c2cc(-c3ccccc3)nc3ccnn23)C1,118
Cc1c(N2CCNCC2)nc2ccc(Br)cc2c1C(=O)NC[C@H](CCC(=O)O)c1ccccc1Cl,122
